Measured values of several laboratories.
Parts stem from different laboratories: compare values within a part only. Changes are numbered by the printed parent chain.

Set 1 — method: DHFR PCA, deep sequencing; matrix: yeast; together with: (+)-ABA 17 µM; relative to: wild-type fitted maximum; direction: higher = stronger binding
Target: ABI1, truncated, D143A, DHFR fusion (Arabidopsis thaliana)
Notes: methotrexate growth selection, single substitutions
Parent: PYL1, truncated, DHFR fusion (Arabidopsis thaliana); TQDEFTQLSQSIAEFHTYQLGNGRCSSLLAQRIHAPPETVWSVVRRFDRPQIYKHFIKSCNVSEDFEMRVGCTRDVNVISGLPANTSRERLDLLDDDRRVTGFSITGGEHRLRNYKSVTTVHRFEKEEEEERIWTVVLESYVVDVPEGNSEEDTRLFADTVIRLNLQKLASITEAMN; partner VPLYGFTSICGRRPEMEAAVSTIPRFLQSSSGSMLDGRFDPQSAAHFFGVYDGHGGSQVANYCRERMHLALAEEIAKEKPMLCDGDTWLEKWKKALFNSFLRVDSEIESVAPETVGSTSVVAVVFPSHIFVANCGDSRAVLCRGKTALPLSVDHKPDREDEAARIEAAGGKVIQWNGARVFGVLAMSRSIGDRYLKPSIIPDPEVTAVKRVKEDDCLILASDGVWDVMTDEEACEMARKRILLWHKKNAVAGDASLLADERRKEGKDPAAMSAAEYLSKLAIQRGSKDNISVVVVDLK
Variant | relative binding score
E139Y | 81.9%
L20F | 71.4%
H55R | 93.3%
Y53L | -7.31%
T135G | -0.778%
A84P | 20.7%
P36F | 42.5%
L156D | 65.1%
P36S | 77.6%
Q2W | 75.1%
T86E | 56.7%
E129L | 79.4%
E130Q | 84.6%
D159G | 41.2%
L91M | 71.1%
V118C | 85.2%
T120R | -3.38%
S63P | 90.6%
M68N | 73.3%
S11K | 66.1%

Set 2 — method: Sort-seq; measured: YFP reporter; matrix: E. coli; notes: PhoQ-PhoP variant library; together with: 10 µM Mg2+; relative to: high Mg2+ state; direction: higher = stronger signaling
Substance: PhoQ, residues 284 288 289 292 302 303 NSMLDC
target | fold induction
PhoP, residues 12 14 15 18 19 GMGLL (Escherichia coli, UniProt P23836) | 6.06
PhoP, residues 12 14 15 18 19 QQAYL (Escherichia coli, UniProt P23836) | 13.9
PhoP, residues 12 14 15 18 19 LFHKL (Escherichia coli, UniProt P23836) | 2.97

Set 3 — method: RNA Bind-n-Seq; molecule type: RNA; matrix: in vitro; tested at: 200 nM; notes: whole 134-nt RNA, ends assumed; together with: 150 mM LiCl; relative to: input library; direction: higher = stronger binding; each molecule: 7-deaza-guanosine replaces G
Target: Fragile X messenger ribonucleoprotein 1, C-terminal low-complexity region (Fmr1, Mus musculus, UniProt P35922)
Strand | log2 enrichment
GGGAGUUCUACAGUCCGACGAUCAAGUCCUGUGCUACACAUCGUAUGUACCGAAUCGGGGCCCCGGCCCCGGGCCCCGGGAAAGUAUUAUGUUACGCCGUUCGGAUCUGCACUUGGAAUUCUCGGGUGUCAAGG | -2.72
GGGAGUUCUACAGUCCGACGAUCUCUCCCCAGGAGCACAGAAAAUGGUUCUGCCCCCUCCACAGCUCCCACAGACCAGAGCCGGCCACCGUUGGAGGUGAGUCGCCCGCCCCUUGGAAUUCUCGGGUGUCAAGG | 1.85
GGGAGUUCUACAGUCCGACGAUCCAAGUCCUGUGCUACACAUCGUAUGUACCGAAUCGGCCCCGGCCCCGGGCCCCGGGAAAGUAUUAUGUUACGCCGUUCGGAUCUGCACUUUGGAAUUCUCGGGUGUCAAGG | -1.78
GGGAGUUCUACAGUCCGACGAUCGCAGGAAGUAAAAACAAAUGGAAACGCUUCGGAUAGUGGCAGGGGUGGGGGUUGCUAAGGAAAGGGUGGGAUGGGAGUGGGUAAAGAGUUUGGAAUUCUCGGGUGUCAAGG | 1.51
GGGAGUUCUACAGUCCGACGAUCUUUGACGCGGUGUGUUACGUGGGGGAGAGAAUAAAACUCCAGCGAGAUCCGGGCCGUGAACGAAAGCAGUGACGGAGGAGCUUGUACCACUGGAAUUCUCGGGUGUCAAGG | 0.281
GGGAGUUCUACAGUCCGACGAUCACCAUGCAGGUGGGCAUCUUUGGGAAGUGGGGCAAGGGGGGGAUAGGGAGGGGGGUAACACUUUGGGAACAUGUGGUCCCAGGUCGUUUCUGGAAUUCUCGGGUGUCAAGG | 1.38
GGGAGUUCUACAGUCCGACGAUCCUCAAGUCCUGUGCUACACAUCGUAUGUACCGAAUCGGGAAGGGAAGGAAGGGAAAGUAUUAUGUUACGCCGUUCGGAUCUGCACUUCCAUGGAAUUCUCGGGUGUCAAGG | -0.544
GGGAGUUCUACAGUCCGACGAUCUCAAGUCCUGUGCUACACAUCGUAUGUACCGAAUCGGGGUUGGGGUUGGUUGGGGAAAGUAUUAUGUUACGCCGUUCGGAUCUGCACUUCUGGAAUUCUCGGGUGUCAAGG | -0.482
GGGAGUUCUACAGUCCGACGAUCACCAUGCAGGUGGGCAUCUUUGGGAAGUGGGGCAAGGGGGGGAUAGGGAGGGGGGUAACACUUUGGGAACAGGUGGUCCCAUGUCGUUUCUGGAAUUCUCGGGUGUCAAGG | 1.4
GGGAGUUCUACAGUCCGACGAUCAGUCCUGUGCUACACAUCGUAUGUACCGAAUCGGGGUGGGGUGGGGUUUUUUUGGGGAAAGUAUUAUGUUACGCCGUUCGGAUCUGCACUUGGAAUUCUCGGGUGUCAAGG | -0.484
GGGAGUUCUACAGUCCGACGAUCCAAGUCCUGUGCUACACAUCGUAUGUACCGAAUCGGCCCCGGGCCCCGGCCCCGGGAAAGUAUUAUGUUACGCCGUUCGGAUCUGCACUUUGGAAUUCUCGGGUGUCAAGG | -1.15

Set 4 — target: CCNE1, cyclin fold, Cln2 fusion (human); method: yeast growth competition, sequencing; matrix: yeast; notes: strong parent motif; relative to: not given; direction: higher = stronger binding
Parent: GMNC docking peptide (human); KNAKRNLSSEFAN
Variant | normalised enrichment score
F11V | 0.213
L7E | 0.147
R5A | 0.123
S8E | 1.53
N2G | 2.22
A12G | 1.26
L7W | 0.11
L7A | 0.547
N2V | 0.0807
N2E | 0.567
S9K | 1.54
A12E | 2.43
S8K | 0.607
A12K | 0.852
A12W | 0.955
E10Q | 0.86
R5P | -0.412
S8L | 4.45

Set 5 — method: universal PBM; molecule type: double-stranded DNA, one strand shown; matrix: in vitro; tested at: 600 nM; direction: higher = stronger binding
Target: Sal-like protein 4, full length isoform A (SALL4, Homo sapiens, UniProt Q9UJQ4, residues 1-1053)
UniProt Q9UJQ4, sequence (whole entry, looked up): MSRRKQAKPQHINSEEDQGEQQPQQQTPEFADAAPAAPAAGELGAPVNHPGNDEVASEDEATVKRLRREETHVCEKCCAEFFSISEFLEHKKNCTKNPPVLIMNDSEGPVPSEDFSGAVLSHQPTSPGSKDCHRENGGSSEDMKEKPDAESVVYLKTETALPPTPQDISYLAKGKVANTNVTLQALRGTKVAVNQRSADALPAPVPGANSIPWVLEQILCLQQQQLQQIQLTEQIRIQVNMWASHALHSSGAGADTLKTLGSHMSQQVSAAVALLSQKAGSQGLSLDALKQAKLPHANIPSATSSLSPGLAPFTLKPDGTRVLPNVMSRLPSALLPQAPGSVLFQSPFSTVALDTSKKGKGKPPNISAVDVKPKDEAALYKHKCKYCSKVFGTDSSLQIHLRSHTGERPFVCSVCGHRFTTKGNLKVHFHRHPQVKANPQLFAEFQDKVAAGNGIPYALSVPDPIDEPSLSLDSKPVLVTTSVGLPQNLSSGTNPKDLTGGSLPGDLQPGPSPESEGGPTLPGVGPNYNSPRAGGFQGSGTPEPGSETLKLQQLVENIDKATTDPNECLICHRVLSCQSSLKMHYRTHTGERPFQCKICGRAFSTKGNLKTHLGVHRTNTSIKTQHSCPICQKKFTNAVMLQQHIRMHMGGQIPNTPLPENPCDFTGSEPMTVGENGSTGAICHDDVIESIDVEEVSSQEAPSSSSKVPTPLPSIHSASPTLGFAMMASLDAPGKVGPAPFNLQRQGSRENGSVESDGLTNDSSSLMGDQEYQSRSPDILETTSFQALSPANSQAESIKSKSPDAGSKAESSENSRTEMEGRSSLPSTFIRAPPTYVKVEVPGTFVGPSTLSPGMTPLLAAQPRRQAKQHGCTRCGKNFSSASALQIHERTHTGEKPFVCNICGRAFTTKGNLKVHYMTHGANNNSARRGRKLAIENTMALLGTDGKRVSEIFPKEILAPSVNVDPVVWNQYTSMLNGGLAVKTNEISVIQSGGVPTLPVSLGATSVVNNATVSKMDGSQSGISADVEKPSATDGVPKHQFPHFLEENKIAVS
Notes: 8-mer, flanks averaged, mean of replicates
Strand | E-score
ATTCTCTG | 0.0643
AAGGCATA | 0.193
AAGTTGTC | 0.0789
CGTACTCA | -0.0379
CAATGGTA | 0.183
ACCTAGGG | -0.126
AAGAGATA | 0.177
CGCTCTTA | -0.0771
AAGCCGTA | 0.0588
CTAGTGCC | -0.232
GGCCCCTA | -0.334
GAATCTCA | -0.106
CGAACGCG | -0.138
GCAGCTGC | -0.126
CCAACGAG | -0.0636
GACTGGCC | -0.272
CCCACTCG | -0.304
GAAAATGC | 0.0872
CCTTGTAG | -0.0364
ACACTGCC | -0.0471
GCTATCTA | 0.0272
AAGCACCA | -0.125
ACGCACCT | -0.134
AGTATCGG | 0.0783
GGAGCCTA | -0.151

Set 6 — method: RNA Bind-n-Seq; molecule type: RNA; matrix: in vitro; tested at: 365 nM; relative to: no-protein control; direction: higher = stronger binding
Target: RNA binding protein fox-1 homolog 2, RRM domain, GST-SBP tag (RBFOX2, Homo sapiens, UniProt O43251-10, residues 100-194)
Notes: natural RNA segment, single round, ends assumed
Target sequence (chain): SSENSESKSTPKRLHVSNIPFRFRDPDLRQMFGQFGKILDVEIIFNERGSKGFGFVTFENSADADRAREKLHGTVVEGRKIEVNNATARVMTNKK
Strand | RBNS enrichment (R)
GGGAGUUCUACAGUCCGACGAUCAGGACCCAGACCGGUGUCUUGCUCUAGGGCAACCCAGGGCAGAGGGGCCAGGUCUGCCCAGCGUUUACCACUGCUGUCAAGCCACAGCCCUUGGCCACCAUACGGGCCAUUGGAAUUCUCGGGUGCCAA | 0.171
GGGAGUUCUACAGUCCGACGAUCUUCUGUUUGGCUUUGGCUUUUUGUUGGGGUGAGAGCCCUAGCUCCCAGCUCCCCUCACUAUCUUUUGACACUAAGAUGGAAGGUUACUAAGUUGCAGGAACAGGAUGAAAUGGAAUUCUCGGGUGCCAA | 0.247
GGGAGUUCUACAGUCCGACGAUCGUGUUUCCAGGAGAGCUAGCAUGUUUCUACAAGUGUAGGACUGGAUUGUGGAUCUGCUAUCUAACAAUGUCAUGGAAAAGUGGUAUCUUAAAAUUUUAGGACCGAUUUCAUGGAAUUCUCGGGUGCCAA | 3.27
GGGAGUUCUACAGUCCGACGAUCUUUAUUAGUUAAUUUAAAUGAACACUCUUAUGUUCCAGUCUUAUAAAUAAAGCCUAUAGUGCACUUCUGUUUGUGUGGUGGGUACGGAUUAUAUUGUUUUGAGGAUACAAUGGAAUUCUCGGGUGCCAA | 0.624
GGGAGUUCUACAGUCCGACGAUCAAGAUUUCCCAGUUUGGUUUCUCUACAUGUCCUGCAGCUGCCCCACUUCUCCUUUACGCUGUGUAGAGAAUGCUCUGCAGUUUAGGCAAUAAAAAUAAAUUGUCUCACUAUGGAAUUCUCGGGUGCCAA | 0.383
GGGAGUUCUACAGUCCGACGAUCGUAUUGUGACCUUUUUUAAAAAAAAGGAACUGAGGUUCAGAAUGAUUAAGGGCCUGGCCCCCAGGGUUGUCCAGCUCCAUAAGGUGGAGCUGGGCAAGAUUUUGGGUUUGUGGAAUUCUCGGGUGCCAA | 0.476
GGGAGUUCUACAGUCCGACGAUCUGAAGCAGCACUGUGAGUGGUUCAAGCACACUGGAAUAUAAAACAGUCAUGGCCUGAGAUGCAGGUGAUGCCAUUACAGAACCAAAUCGUGGCACGUAUUGCUGUGUCUCUGGAAUUCUCGGGUGCCAA | 0.659
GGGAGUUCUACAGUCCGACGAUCUCCUAACAACUUUUAUUUGACACAUUAAAAAAUUUCUGACUGUCCUUAAGACAGUAGAGAUGUCUCUCUUUUAUUUGAGUUUGUGACUGACUUUGCCUAUAUAUCUUUCUUGGAAUUCUCGGGUGCCAA | 1.68
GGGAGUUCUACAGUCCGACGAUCUAGAAGUGCGUCCUGUUUUCGCCUUACUUUACUCAGAGCUAGUUAGUGCUUCCUUAGUUUCCUAGCAACUAGGUGUGCAAAUCAUGUGUUGCAGCUUUACGGUUUUUAAAUGGAAUUCUCGGGUGCCAA | 0.724
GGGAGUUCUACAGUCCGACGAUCAGAAAGAAUUUCAAGUUAACAGUAUCUAACUUUAUCAUAGUUGAUGUUAGUAAAUUUUAAAAAAUGAUUUUAUAUGUAUGACAAAAAUCUUUGUAAAAUGCGCAAGUGCAUGGAAUUCUCGGGUGCCAA | 18.6
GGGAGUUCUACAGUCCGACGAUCUUAGUUGAUCCGGUUUCUCUGUUCUGACAAGGUGGAAAACUGGUAAGCAUCUCAGAUCUGCAGUAUUGUGGUGGUGCUCCACUGAGCAGGAGUCCACUCAGAAGCAUGAGUGGAAUUCUCGGGUGCCAA | 0.636
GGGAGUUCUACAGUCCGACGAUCCAGGCCUUAGGGACUCAUAAAGAUAUGAGUACAUUGCUUAUUGGAAACUUGUAGGUUCACAUAUUAUUUUGACUAAGGUAUAUGGAUUUCCCCCCACUUACAUAAGUAAAUGGAAUUCUCGGGUGCCAA | 0.458

Excerpt of the above (set 4):
Variant | normalised enrichment score
A12G | 1.26
N2G | 2.22
N2E | 0.567
A12K | 0.852
L7E | 0.147
S8L | 4.45
S8E | 1.53
A12E | 2.43
